Results of several laboratories.
Compare with care: the assays were run in different laboratories. ± gives the spread as reported.
Target: Tyrosine-protein kinase HCK (HCK, Homo sapiens, UniProt P08631)
Chain of UniProt P08631 (whole entry, looked up): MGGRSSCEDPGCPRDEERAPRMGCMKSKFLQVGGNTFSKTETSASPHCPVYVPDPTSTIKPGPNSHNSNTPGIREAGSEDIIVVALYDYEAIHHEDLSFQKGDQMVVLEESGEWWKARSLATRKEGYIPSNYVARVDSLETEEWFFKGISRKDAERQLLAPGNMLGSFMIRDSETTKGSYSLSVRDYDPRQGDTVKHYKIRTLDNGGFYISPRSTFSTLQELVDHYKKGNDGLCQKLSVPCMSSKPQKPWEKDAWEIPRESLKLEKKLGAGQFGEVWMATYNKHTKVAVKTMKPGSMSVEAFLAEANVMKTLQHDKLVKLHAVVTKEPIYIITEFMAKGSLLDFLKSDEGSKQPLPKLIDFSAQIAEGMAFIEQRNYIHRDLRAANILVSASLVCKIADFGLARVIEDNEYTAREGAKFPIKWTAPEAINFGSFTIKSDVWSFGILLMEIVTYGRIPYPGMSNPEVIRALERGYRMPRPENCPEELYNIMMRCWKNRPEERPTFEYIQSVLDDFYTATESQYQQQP

| SMILES | test | test system | conditions | scale | measurement | value |
| --- | --- | --- | --- | --- | --- | --- |
| Cc1cnc(NC2CCOCC2)nc1-n1cnc(C(=O)NC(CN)c2cc(F)cc(Cl)c2)c1 (stereo not shown) | enzyme activity, radiometric |  | 1 µM |  | remaining activity | 103% |
| C=CC(=O)N1CCC[C@@H](n2nc(-c3ccc(Oc4ccccc4)cc3)c3c(N)ncnc32)C1 |  |  | 0.1 µM |  | remaining activity | 102% |
| [2H]c1cc(C)c(NC(=O)c2cnc(Nc3cc(N4CCC(O)CC4)nc(C)n3)s2)c(Cl)c1 |  |  | 0.001 µM |  | inhibition | > 50% |
| Cc1ccc(C(=O)NCc2ccsc2)cc1C#Cc1cn(C(C)C)c2ncnc(N)c12 | kinase activity |  | 1 µM, together with: ATP at Km |  | remaining activity | 4% |
| C=CC(=O)N1CCC[C@@H](n2nc(-c3ccc(Oc4ccccc4)cc3)c3c(N)ncnc32)C1 | kinase activity, inhibitor, HotSpot radiometric |  | 100 nM, together with: ATP 10 µM |  | remaining activity | 15 ± 0.2% |
| [2H]c1cc(C)c(NC(=O)c2cnc(Nc3cc(N4CCCCC4)nc(C)n3)s2)c(Cl)c1 |  |  | 0.01 µM |  | inhibition | > 90% |
| C=CC(=O)N1CCC(COCC(=O)N2CCN(c3nc(-c4cnc(N)nc4C(F)F)nc(N4CCOC[C@@H]4C)n3)CC2)CC1 | KINOMEscan |  | 1 µM |  | remaining binding | 100% |
| COc1ccc(F)cc1C(=O)NCc1ccc(-c2nn([C@@H](C)C(F)(F)F)c(N)c2C(N)=O)cc1 | target engagement, competitive chemoproteomics | human PBMCs | 1 µM |  | inhibition | -8.5% |
| Cc1cc(Nc2cc(N3CCN(C)CC3)nc(Sc3ccc(NC(=O)C4CC4)cc3)n2)[nH]n1 |  |  | 0.03 µM | reference: control | remaining activity | 104% |
| CCN(CC)c1ccc(C2=NNC(=O)CC2C)cc1[N+](=O)[O-] (stereo not shown) | kinase activity |  | 10 µM, activated enzyme |  | remaining activity | 105% |

For quick reference, copied from above:
| SMILES | test | test system | conditions | scale | measurement | value |
| --- | --- | --- | --- | --- | --- | --- |
| COc1ccc(F)cc1C(=O)NCc1ccc(-c2nn([C@@H](C)C(F)(F)F)c(N)c2C(N)=O)cc1 | target engagement, competitive chemoproteomics | human PBMCs | 1 µM |  | inhibition | -8.5% |
